Results pooled from the literature.
A part holds a random share of what one study measured. Changes are numbered by the printed parent chain.
Chain of UniProt P08172 (whole entry, looked up): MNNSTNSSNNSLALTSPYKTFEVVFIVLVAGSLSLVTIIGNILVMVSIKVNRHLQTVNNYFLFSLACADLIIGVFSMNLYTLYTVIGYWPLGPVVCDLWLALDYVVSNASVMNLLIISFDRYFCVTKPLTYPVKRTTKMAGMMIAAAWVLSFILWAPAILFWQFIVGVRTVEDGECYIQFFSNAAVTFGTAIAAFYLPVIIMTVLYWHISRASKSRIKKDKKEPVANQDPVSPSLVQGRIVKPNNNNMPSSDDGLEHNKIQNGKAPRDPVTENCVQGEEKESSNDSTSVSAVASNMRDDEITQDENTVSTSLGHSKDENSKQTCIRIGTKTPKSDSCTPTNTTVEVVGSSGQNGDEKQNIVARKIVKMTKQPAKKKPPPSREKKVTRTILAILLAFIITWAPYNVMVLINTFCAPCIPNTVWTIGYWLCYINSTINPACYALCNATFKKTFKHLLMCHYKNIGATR

Block 1
Target: CCND2, cyclin fold, Cln2 fusion (human)
Technique: yeast growth competition, sequencing
Sample: yeast
Setting: strong parent motif
Reference: not given
Direction: higher = stronger binding
Starting sequence: viral docking peptide; YKVKRRLVFGADD; partner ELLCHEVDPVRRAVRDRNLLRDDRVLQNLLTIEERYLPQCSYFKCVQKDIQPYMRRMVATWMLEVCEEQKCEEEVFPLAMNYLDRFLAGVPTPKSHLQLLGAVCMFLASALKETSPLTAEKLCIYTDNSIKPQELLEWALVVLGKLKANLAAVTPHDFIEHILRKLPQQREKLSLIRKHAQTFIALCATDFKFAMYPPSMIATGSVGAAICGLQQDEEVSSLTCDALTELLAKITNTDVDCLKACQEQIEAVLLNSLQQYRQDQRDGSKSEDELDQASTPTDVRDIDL
For `YKVKRRGVFGADD [L7G]`, “normalised enrichment score” read -0.648.
`YKVKRMLVFGADD [R6M]` — result for “normalised enrichment score”: 0.451.
Under “normalised enrichment score”, `YKVARRLVFGADD [K4A]` is recorded as 1.91.
`YKVKRRLVFGAAD [D12A]`: “normalised enrichment score” 0.97.
`YKVDRRLVFGADD [K4D]` — result for “normalised enrichment score”: 0.42.
For `YKVKRRLLFGADD [V8L]`, “normalised enrichment score” read 0.794.
For `YKNKRRLVFGADD [V3N]`, “normalised enrichment score” read 0.224.
`YKVKRRLVFCADD [G10C]` — result for “normalised enrichment score”: 1.26.
For `YKVKRRPVFGADD [L7P]`, “normalised enrichment score” read -0.175.
`YKVKRRLVPGADD [F9P]`: “normalised enrichment score” -0.0248.
`YKVGRRLVFGADD [K4G]`: “normalised enrichment score” 0.898.
`YKVKRRLVDGADD [F9D]` — result for “normalised enrichment score”: 0.52.
For `YKVKRRNVFGADD [L7N]`, “normalised enrichment score” read 0.444.
Under “normalised enrichment score”, `YKVIRRLVFGADD [K4I]` is recorded as -0.0693.
Under “normalised enrichment score”, `YKVKRRLVRGADD [F9R]` is recorded as -0.238.
`YKVKRRLVFGNDD [A11N]`: “normalised enrichment score” 1.51.

Block 2
Target: HLA class I histocompatibility antigen, A alpha chain, allele A*80:01 (Homo sapiens, UniProt P04439)
Observed: peptide-MHC binding
Molecule type: peptide
Concentration: concentration not given
`PSYQLPLPM`: binding “inactive”.
`KVRDRNFQL`: binding “inactive”.
For `RLDARLQVL`, binding read “inactive”.
Under binding, `SKLRALLTL` is recorded as “inactive”.

Block 3
Target: Sal-like protein 4, full length isoform A (SALL4, Homo sapiens, UniProt Q9UJQ4, residues 1-1053)
Chain of UniProt Q9UJQ4 (whole entry, looked up): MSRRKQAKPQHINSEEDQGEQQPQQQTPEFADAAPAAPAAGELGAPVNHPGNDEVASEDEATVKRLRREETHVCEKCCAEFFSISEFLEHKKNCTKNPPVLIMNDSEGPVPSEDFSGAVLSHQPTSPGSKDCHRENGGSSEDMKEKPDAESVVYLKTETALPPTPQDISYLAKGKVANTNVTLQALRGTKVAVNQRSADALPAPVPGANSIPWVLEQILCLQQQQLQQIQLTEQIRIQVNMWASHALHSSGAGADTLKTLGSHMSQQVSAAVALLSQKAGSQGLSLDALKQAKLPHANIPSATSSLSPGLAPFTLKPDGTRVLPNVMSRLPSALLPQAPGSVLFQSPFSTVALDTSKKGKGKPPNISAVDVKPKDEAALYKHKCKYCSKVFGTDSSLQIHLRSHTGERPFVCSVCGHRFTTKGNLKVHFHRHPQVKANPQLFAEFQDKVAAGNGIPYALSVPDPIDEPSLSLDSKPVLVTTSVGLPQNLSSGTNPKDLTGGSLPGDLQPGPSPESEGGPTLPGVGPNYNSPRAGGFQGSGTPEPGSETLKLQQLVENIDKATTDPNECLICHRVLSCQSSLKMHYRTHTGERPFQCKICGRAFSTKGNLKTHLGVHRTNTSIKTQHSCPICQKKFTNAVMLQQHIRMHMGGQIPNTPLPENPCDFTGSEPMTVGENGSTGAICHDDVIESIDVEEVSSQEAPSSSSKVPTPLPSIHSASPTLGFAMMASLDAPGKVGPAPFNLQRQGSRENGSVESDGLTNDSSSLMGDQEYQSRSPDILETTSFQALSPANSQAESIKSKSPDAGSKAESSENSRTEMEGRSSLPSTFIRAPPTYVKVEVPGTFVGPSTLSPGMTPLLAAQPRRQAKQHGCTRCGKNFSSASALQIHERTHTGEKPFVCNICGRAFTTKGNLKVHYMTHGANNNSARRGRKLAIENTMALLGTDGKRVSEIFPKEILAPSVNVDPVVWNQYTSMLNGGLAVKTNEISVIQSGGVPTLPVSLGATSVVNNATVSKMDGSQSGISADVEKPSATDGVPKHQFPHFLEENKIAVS
Technique: universal PBM
Molecule type: double-stranded DNA, one strand shown
Sample: in vitro
Concentration: 600 nM
Setting: 8-mer, flanks averaged, mean of replicates
Direction: higher = stronger binding
`CTGAAAGA` gave an E-score of 0.153.
The E-score of `ATAGGTCG` is reported as -0.0667.
With `AGTTGCGA` the E-score was 0.0704.
For `ACCCCAAT`, the E-score was -0.0379.
The E-score of `GATTTAGC` is reported as -0.00856.
For `ACTGAATG`, the E-score was 0.138.
`ATGTAGAA` gave an E-score of 0.172.
The E-score of `ACTGTTCC` is reported as -0.157.

Block 4
Target: Prothrombin, mature alpha-thrombin (F2, Homo sapiens, UniProt P00734)
Technique: aptamer microarray, sandwich
Molecule type: DNA with 2'F-ANA
Sample: in vitro
Concentration: 200 nM
Setting: whole 15-mer aptamer, many near background
With: Cy3 exosite-II aptamer, 400 nM
Direction: higher = stronger binding
Oligonucleotide: GGTTGGTGTGGTTGG
For `2'F-ANA at 1 5 6 8 9 13 14`, “mean fluorescence intensity” read 54.3 a.u.
`2'F-ANA at 2 5 6 7 8 10 11 12 13 14`: “mean fluorescence intensity” 60.1 a.u.
For `2'F-ANA at 1 2 3 4 5 8 9 10 12 15`, “mean fluorescence intensity” read 48.8 a.u.
`2'F-ANA at 1 2 4 10 11 12 13 14`: “mean fluorescence intensity” 45.4 a.u.
Under “mean fluorescence intensity”, `2'F-ANA at 1 4 6 7 8 9 10 12 13 14 15` is recorded as 82.6 a.u.
For `2'F-ANA at 1 4 6 10 11`, “mean fluorescence intensity” read 50.5 a.u.
`2'F-ANA at 1 4 5 8 11 14 15` — result for “mean fluorescence intensity”: 46.1 a.u.
`2'F-ANA at 1 2 4 6 7 8 9 10 13 14 15`: “mean fluorescence intensity” 57.6 a.u.

Mixed results
CNC(=O)c1cc(C(=O)NC2CC2)cn(Cc2ccccc2)c1=O has an inhibition of 13.2% (Muscarinic acetylcholine receptor M2 (CHRM2, Homo sapiens, UniProt P08172); binding, radioligand binding; 10 µM).
